Assay results of several laboratories.
Parts stem from different laboratories: compare values within a part only.

Series 1
Target: Ras GTPase-activating protein-binding protein 1, full length (G3BP1, Homo sapiens, UniProt Q13283)
UniProt Q13283, sequence (whole entry, looked up): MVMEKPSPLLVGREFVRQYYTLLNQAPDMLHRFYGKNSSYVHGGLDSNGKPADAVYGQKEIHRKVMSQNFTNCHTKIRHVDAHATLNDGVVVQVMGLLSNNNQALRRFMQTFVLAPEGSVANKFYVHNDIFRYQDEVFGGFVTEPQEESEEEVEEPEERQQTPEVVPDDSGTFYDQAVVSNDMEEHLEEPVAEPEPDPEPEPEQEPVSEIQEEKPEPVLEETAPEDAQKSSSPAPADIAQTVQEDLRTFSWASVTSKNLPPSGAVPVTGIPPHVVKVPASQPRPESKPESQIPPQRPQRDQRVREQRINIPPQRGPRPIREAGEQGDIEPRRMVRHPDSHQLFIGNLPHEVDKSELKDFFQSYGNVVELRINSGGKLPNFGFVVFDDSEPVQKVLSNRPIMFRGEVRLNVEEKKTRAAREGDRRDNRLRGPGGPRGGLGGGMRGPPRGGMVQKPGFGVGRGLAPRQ
Technique: RNA Bind-n-Seq
Form: RNA
Matrix: in vitro
Concentration: 200 nM
Notes: whole 134-nt RNA, ends assumed
With: 150 mM KCl
Relative to: input library
Direction: higher = stronger binding
Constant ends, left off below: GGGAGUUCUACAGUCCGACGAUC … UGGAAUUCUCGGGUGUCAAGG
Sequence	log2 enrichment
UCAAGUCCUGUGCUACACAUCGUAUGUACCGAAUCGGGGCCGGGGCCGGCCGGGGAAAGUAUUAUGUUACGCCGUUCGGAUCUGCACUUC	-0.645
ACCAUGCAGGUGGGCAUCUUUGGGAAGUGGGGCAAGGGGGAAAUAGGGAGGGGGGUAACACUUUGGGAACAGGUGGUCCCAGGUCGUUUC	0.942
AAGUCCUGUGCUACACAUCGUAUGUACCGAAUCGGAAAAAAAGGUUUUUUUGGAGGAAAGUAUUAUGUUACGCCGUUCGGAUCUGCACUU	-1.71
GCAGGAAGUAAAAACAAAUGGAAAUGCUUCGGAUAGUGGCAGGGGUGGGGGUUGCUAAGGAAAGGGUGAGAUGGGAGUGGGUAAAGAGUU	0.753
CUGUGCUACACAUCGUAUGUACCGAAUCGGGGUUUGGGGUUUUUUUGGGGAAAAAAAGGGGAAAGUAUUAUGUUACGCCGUUCGGAUCUG	-0.132
CCUGUGCUACACAUCGUAUGUACCGAAUCGGAAAAAAAGGGAAAAAAAGGGAAAAAAAGGAAAGUAUUAUGUUACGCCGUUCGGAUCUGC	-0.966
AGUCCUGUGCUACACAUCGUAUGUACCGAAUCGGAAAGGAAAAAAAGGUUUUUUUGGAAAGUAUUAUGUUACGCCGUUCGGAUCUGCACU	-1.64
UCAAGUCCUGUGCUACACAUCGUAUGUACCGAAUCGGUUUUUUUGGUGGAAAGGAAAGUAUUAUGUUACGCCGUUCGGAUCUGCACUUCC	-0.911
CUCAACGUUGACAGUAAUGAACAAGGCUCCUAUGUAGUGGCCAUGGAAACCUUUACCAACUUAGGACCCAUUGUCGAUAUGUGCGUGGUG	-0.539
UGGAUAUGGUUAUAGAAGAAGUGGCCGAGAUAAAUAUGGCCCUCCUACUCGCACAGAGUACAGACUUAUUGUGGAGAAUUUGUCAAGUCG	-1.03
UGGGAGGUGGAUUUUGUUUAUUUUUUUAGCUCAUUUCCAGGGGUGGGAAUUUUUUUUUAAUUUGUGUCAUGAAUAAAGUUGUUUUUGAAA	0.229
AGUCCUGUGCUACACAUCGUAUGUACCGAAUCGGCCCCGGGGCCCCGGGGCCCCGGGAAAGUAUUAUGUUACGCCGUUCGGAUCUGCACU	-0.419
CAAGUCCUGUGCUACACAUCGUAUGUACCGAAUCGGGGUUUGGGUUUGGGUUUGGGAAAGUAUUAUGUUACGCCGUUCGGAUCUGCACUU	0.803
UGGCCCUGGUGGCAUGCGGGGAGGAAGAGGUGGCCUCAUGGAUCGUGGUGGUCCCGGUGGAAUGUUCAGAGGUGGCCGUGGUGAAGACAG	0.0749

Series 2
Target: UBE2C UBC core domain (UniProt O00762)
UniProt O00762, sequence (whole entry, looked up): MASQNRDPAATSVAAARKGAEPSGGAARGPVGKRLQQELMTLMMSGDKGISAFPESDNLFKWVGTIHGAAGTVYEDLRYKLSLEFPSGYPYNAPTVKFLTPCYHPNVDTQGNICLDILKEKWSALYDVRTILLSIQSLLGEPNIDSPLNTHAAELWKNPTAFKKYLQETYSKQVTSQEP
Technique: yeast two-hybrid
Matrix: yeast
Notes: mostly zero background
Relative to: not given
Direction: higher = stronger interaction
B1: RNF130 RING domain (UniProt Q86XS8); chain DKETDPDFDHCAVCIESYKQNDVVRILPCKHVFHKSCVDPWLSEHCTCPMCKLNILKALGIV
B2: RMND5B RING domain (UniProt Q96G75); chain MKCWYHSVFACPILRQQTSDSNPPIKLICGHVISRDALNKLINGGKLKCPYCPMEQNPADGK
B3: RNF115 RING domain (UniProt Q9Y4L5); chain TQEQVDMGLECPVCKEDYTVEEEVRQLPCNHFFHSSCIVPWLELHDTCPVCRKSLNGEDSTR
B4: UBE4B RING domain (UniProt O95155); chain KNARAEIDYSDAPDEFRDPLMDTLMTDPVRLPSGTIMDRSIILRHLLNSPTDPFNRQTLTESMLEPVPELKEQIQAWMREKQNSDH
B5: SHPRH RING domain (UniProt Q149N8); chain KTSGGVNPEPCPICARQLGKQWAVLTCGHCFCNECISIIIEQYSVGSHRSSIKCAICRQTTSHKEISY
B6: MARCHF2 RING domain (UniProt Q9P0N8); chain RLLSTVIRALDTPSDGPFCRICHEGANGECLLSPCGCTGTLGAVHKSCLEKWLSSSNTSYCELCHTEFAVEKRPRPLTEWL
B7: TRIM28 RING domain (UniProt Q13263); chain GAEALELLEHCGVCRERLRPEREPRLLPCLHSACSACLGPAAPAAANSSGDGGAAGDGTVVDCPVCKQQCFSKDIVE
B8: CBLL1 RING domain (UniProt Q75N03); chain GEKDDTPVHFCDKCGLPIKIYGRMIPCKHVFCYDCAILHEKKGDKMCPGCSDPVQRIEQCT
B9: RNF17 RING domain (UniProt Q9BXT8); chain SQPWGAAEIQCTRCGRRVSRSSGHHCELQCGHAFCELCLLMTEECTTIICPDCEVATAVNTRQR
B10: NHLRC1 RING domain (UniProt Q6VVB1); chain MREAEISLLECKVCFEKFGHRQQRRPRNLSCGHVVCLACVAALAHPRTLALECPFCRRACRGCDTSD
B11: MDM2 RING domain (UniProt Q00987); chain TQDKEESVESSLPLNAIEPCVICQGRPKNGCIVHGKTGHLMACFTCAKKLKKRNKPCPVCRQPIQMIVLTYFP
B12: RNF7 RING domain (UniProt Q9UBF6); chain AICRVQVMDACLRCQAENKQEDCVVVWGECNHSFHNCCMSLWVKQNNRCPLCQQDWVVQRIGK
Sequence	lacZ reporter activity
B1 (RNF130 RING domain)	0
PLRRLQEEKLCKICMDRHIAVVFIPCGHLVTCKQCAEAVDRCPMCSAVIDFKQRVF (BIRC8 RING domain (UniProt Q96P09))	0
B2 (RMND5B RING domain)	0
B3 (RNF115 RING domain)	0
B4 (UBE4B RING domain)	0
B5 (SHPRH RING domain)	0
B6 (MARCHF2 RING domain)	0
B7 (TRIM28 RING domain)	0
B8 (CBLL1 RING domain)	0
EDVLSKDAGECAICLEELQQGDTIARLPCLCIYHKGCIDEWFEVNRSCPEHPSD (ZNRF2 RING domain (UniProt Q8NHG8))	0
B9 (RNF17 RING domain)	0
SNNDLASLFECPVCFDYVLPPILQCQSGHLVCSNCRPKLTCCPTCRGPLGSIRNLA (SIAH1 RING domain (UniProt Q8IUQ4))	0
B10 (NHLRC1 RING domain)	0
B11 (MDM2 RING domain)	0
GSEEEEIPFRCFICRQAFQNPVVTKCRHYFCESCALEHFRATPRCYICDQPTGGIFNPA (RNF113B RING domain (UniProt Q8IZP6))	0
B12 (RNF7 RING domain)	0

Series 3
Cell line: yeast with cyclin A1-Cln2 chimera
Read-out: cell growth
Action: binder
Technique: competitive growth deep sequencing
Form: peptide
Concentration: concentration not given
Notes: peptide tiling library
Direction: direction not given
Sequence	growth enrichment score
HRRRLLFACSPPPASQ	-0.7
GPVKLEFDVSDGAT	-0.249
YLYLLLTQSLWCRV	-0.304
NESHLDKEHDAVEVAD	0.886
RRRRLLFWDKETQI	0.459
SPREGHMMDALYAQVK	0.709
AGSAKRRLFGEDPPKE	1.58
ATNSSHTDAHEILVSD	-0.404
NRLLKLFTRCLTPLVP	-1.37
VSRNLRSSLKSSLHTL	-0.923
RTEALEQGGLPKKLIF	-1.72
PPTFLSTGEIHAFLSS	0.626

Series 4
Target: Prothrombin, mature alpha-thrombin (F2, Homo sapiens, UniProt P00734)
Technique: aptamer microarray, sandwich
Form: DNA with 2'F-ANA
Matrix: in vitro
Concentration: 200 nM
Notes: whole 15-mer aptamer, many near background
With: Cy3 exosite-II aptamer, 400 nM
Direction: higher = stronger binding
Sequence: GGTTGGTGTGGTTGG
Modification	mean fluorescence intensity [a.u.]
2'F-ANA at 1 4 10 11 12 15	54.7
2'F-ANA at 1 2 3 5 8 12	127
2'F-ANA at 2 4 5 6 8 11 13 15	70.4
2'F-ANA at 1 2 4 5 6 8 15	64.3
2'F-ANA at 4 6 7 8 9 10 11 13 15	65.2
2'F-ANA at 2 5 11 12	122
2'F-ANA at 1 8 9 11 12 14 15	71
2'F-ANA at 1 2 3 5 12 15	130
2'F-ANA at 4 6 10 11 12 14 15	60.2
2'F-ANA at 1 2 3 4 7 11 14	95.6
2'F-ANA at 1 2 4 5 6 7 10 11 12	48.9
2'F-ANA at 1 5 7 8 9 12 14	45.4
2'F-ANA at 1 3 4 6 8 11 12 14 15	80.4
2'F-ANA at 1 3 4 7 13 14 15	70.9
2'F-ANA at 1 3 5 6 9 12 15	119
2'F-ANA at 1 2 3 4 5 6 11 15	53.1
2'F-ANA at 1 2 3 6 11 12 13 14 15	153
2'F-ANA at 3 5 9 10 11 12 13	62.1
2'F-ANA at 1 2 4 6 7 10 13 14	49.8
2'F-ANA at 6 7 9 11 12 13 14	168
2'F-ANA at 1 2 3 5 6 8 9 10 13 14	48.8
2'F-ANA at 1 2 3 8 9 10 11 12 13 15	85.8
2'F-ANA at 1 3 5 8 10 11 12 14 15	50.6
2'F-ANA at 1 2 3 8 9 10 13 15	66.6
2'F-ANA at 4 7 8 9 10 11 14	60.9

Repeated from above (series 4):
Modification	mean fluorescence intensity [a.u.]
2'F-ANA at 1 4 10 11 12 15	54.7
2'F-ANA at 1 2 3 4 5 6 11 15	53.1
2'F-ANA at 3 5 9 10 11 12 13	62.1
2'F-ANA at 1 2 4 5 6 8 15	64.3
